Measured values collected from several papers.
Several values in a cell are separate wells, animals, samples, runs or records. ± marks the error that the study gave.

CC(C)C[C@H](NC(=O)[C@H](CCC(=O)O)NC(=O)[C@@H](N)Cc1ccccc1)C(=O)N[C@@H](CCC(=O)O)C(=O)N[C@@H](CCCNC(=N)N)C(=O)N[C@@H](CCCNC(=N)N)C(=O)N[C@@H](Cc1ccccc1)C(=O)N[C@@H](CCCCN)C(=O)N[C@@H](CCC(N)=O)C(=O)N[C@@H](CCC(N)=O)C(=O)O gave a viability of 99.5% and 100% and 99.4% (HCT-116; CCK-8; 0.625 µM; reference: vehicle).
For O=C(O)c1ccc(-c2nc(-c3ccccc3Cl)c3sccn23)cc1, “multipotential progenitor colonies” read “no effect” (human CD34+ haematopoietic stem cells; colony; concentration not given, 24 h priming before plating, single dose).
The colony survival of COc1ccccc1-c1ccncc1C(=O)Nc1nnc(OCc2ccc(Cl)cc2)s1 is reported as 94.7% (DLD-1 parental (BRCA2 WT); 0.125 µM, average of 3 runs; reference: untreated).
For Cc1c(Cl)cccc1Nc1ccccc1C(=O)[Se]CC(=O)Nc1cccc(C(F)(F)F)c1, the CC50 was 10.2 µM (NCI60 breast subpanel; NCI60 five-dose screen).
CC[C@H](C)[C@H](NC(=O)[C@H](C)NC(=O)CNC(=O)[C@H](Cc1ccccc1)NC(=O)[C@H](CC(N)=O)NC(=O)[C@H](CC(N)=O)NC(=O)[C@H](CO)NC(=O)[C@H](CO)NC(=O)[C@H](Cc1c[nH]cn1)NC(=O)[C@@H](NC(=O)[C@H](CC(C)C)NC(=O)[C@H](Cc1ccccc1)NC(=O)[C@H](CC(N)=O)NC(=O)[C@H](C)NC(=O)[C@H](CC(C)C)NC(=O)[C@H](CCCNC(=N)N)NC(=O)[C@H](CCC(N)=O)NC(=O)[C@@H](NC(=O)[C@H](C)NC(=O)[C@@H]1CSSC[C@H](NC(=O)[C@@H](N)CCCCN)C(=O)N[C@@H](CC(N)=O)C(=O)N[C@@H]([C@@H](C)O)C(=O)N[C@@H](C)C(=O)N[C@@H]([C@@H](C)O)C(=O)N1)[C@@H](C)O)C(C)C)C(=O)N[C@@H](CC(C)C)C(=O)N[C@@H](CO)C(=O)N[C@@H](CO)C(=O)N[C@H](C(=O)N[C@@H](CC(N)=O)C(=O)N[C@H](C(=O)NCC(=O)N[C@@H](CO)C(=O)N[C@@H](CC(N)=O)C(=O)N[C@H](C(=O)N[C@@H](Cc1ccc(O)cc1)C(N)=O)[C@@H](C)O)C(C)C)[C@@H](C)O has a Pearson coefficient of under 0.3 (RIN-m5F; refers to: GM130 Golgi marker; 10 µM, 24 h).
With O=[N+]([O-])c1ccc(-n2nc(-c3ccc(F)cc3)cc2-c2ccc(F)cc2)c([N+](=O)[O-])c1 the ROS reduction was about 32% (Neuro2a; H2DCF-DA flow cytometry; 15 µM, 48 h; reference: untreated uninfected cells).
The log TGI of CC(C)(C)C(=O)OCOP(=O)(OCOC(=O)C(C)(C)C)C1CCCN(O)C1=O (stereo not drawn) is reported as -5.19 log M (UO-31).
CC(C)C[C@H](NC(=O)[C@H](CC(=O)O)NC(=O)CNC(=O)[C@@H](N)CCCNC(=N)N)C(=O)N[C@@H](C)C(=O)N[C@H](C(=O)N[C@@H](CC(C)C)C(=O)N[C@@H](CCCNC(=N)N)C(=O)N[C@@H](CCC(N)=O)C(=O)N[C@@H](CC(C)C)C(=O)N[C@@H](C)C(=O)N[C@@H](CCC(N)=O)C(=O)N[C@@H](CCC(=O)O)C(=O)N[C@@H](CC(=O)O)C(=O)NCC(=O)N[C@H](C(=O)N[C@H](C(=O)NCC(=O)N[C@H](C(=O)N[C@@H](CCCNC(=N)N)C(=O)NCCOCCOCCOCCOCCOCCOCCOCCOCCOCCOCCOCCOCCC(=O)N[C@@H](CS)C(N)=O)C(C)C)C(C)C)C(C)C)[C@@H](C)O gave a selectivity ratio of 2.9 ± 1.6 (Huh-7 liver cancer; phage binding; reference: targeting over control phage).
O=C(C[Se]C(=O)c1ccccc1)Nc1cccc(C(F)(F)F)c1 gave a mean TGI of 4.01 µM (NCI60 CNS subpanel; NCI60 five-dose screen).

For quick reference, copied from above:
With O=[N+]([O-])c1ccc(-n2nc(-c3ccc(F)cc3)cc2-c2ccc(F)cc2)c([N+](=O)[O-])c1 the ROS reduction was about 32% (Neuro2a; H2DCF-DA flow cytometry; 15 µM, 48 h; reference: untreated uninfected cells).
